{"data": "Published values pooled from the literature", "T1": "TFAM/TFB2M 43-245; 21-396 (Homo sapiens); chain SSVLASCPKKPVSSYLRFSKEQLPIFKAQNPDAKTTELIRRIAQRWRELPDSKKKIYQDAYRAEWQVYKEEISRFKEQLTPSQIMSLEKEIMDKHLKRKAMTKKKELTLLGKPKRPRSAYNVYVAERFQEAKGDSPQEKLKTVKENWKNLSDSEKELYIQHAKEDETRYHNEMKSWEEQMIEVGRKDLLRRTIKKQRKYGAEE; chain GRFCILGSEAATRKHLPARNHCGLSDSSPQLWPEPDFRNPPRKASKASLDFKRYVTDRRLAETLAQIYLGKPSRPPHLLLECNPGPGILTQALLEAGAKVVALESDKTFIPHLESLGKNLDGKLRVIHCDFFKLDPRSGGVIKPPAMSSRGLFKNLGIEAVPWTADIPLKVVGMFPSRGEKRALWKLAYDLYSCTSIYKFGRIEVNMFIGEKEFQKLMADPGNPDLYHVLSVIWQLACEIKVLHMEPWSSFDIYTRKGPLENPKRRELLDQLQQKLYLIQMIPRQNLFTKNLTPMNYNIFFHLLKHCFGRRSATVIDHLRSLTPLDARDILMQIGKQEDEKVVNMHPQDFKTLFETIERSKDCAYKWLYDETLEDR", "note": "Lines come from different studies, so protocols differ. Numbers after ± are the reported error.", "UniProt P11362, sequence (whole entry, looked up)": "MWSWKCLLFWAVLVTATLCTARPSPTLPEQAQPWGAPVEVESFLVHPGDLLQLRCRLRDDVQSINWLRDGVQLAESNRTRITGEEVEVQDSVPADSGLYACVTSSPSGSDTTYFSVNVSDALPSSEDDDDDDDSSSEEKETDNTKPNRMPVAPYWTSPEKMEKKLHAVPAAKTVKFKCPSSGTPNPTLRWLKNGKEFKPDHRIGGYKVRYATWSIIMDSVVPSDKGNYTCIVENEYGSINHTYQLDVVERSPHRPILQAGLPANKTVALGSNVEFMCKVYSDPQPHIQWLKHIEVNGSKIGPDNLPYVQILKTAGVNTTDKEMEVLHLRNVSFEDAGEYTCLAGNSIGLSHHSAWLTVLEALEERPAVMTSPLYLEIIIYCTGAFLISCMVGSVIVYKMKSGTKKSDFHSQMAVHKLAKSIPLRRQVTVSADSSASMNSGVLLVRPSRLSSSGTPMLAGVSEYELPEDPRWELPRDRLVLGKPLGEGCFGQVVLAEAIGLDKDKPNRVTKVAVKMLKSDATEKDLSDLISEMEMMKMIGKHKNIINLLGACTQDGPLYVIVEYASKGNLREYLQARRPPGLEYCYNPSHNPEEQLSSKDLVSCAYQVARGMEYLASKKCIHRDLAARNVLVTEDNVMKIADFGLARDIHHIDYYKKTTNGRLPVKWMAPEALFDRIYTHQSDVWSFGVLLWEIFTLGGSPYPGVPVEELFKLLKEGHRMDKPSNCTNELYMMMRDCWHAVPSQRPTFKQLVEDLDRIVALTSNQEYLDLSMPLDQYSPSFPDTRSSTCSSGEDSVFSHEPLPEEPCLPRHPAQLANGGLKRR", "UniProt P93024, sequence (whole entry, looked up)": "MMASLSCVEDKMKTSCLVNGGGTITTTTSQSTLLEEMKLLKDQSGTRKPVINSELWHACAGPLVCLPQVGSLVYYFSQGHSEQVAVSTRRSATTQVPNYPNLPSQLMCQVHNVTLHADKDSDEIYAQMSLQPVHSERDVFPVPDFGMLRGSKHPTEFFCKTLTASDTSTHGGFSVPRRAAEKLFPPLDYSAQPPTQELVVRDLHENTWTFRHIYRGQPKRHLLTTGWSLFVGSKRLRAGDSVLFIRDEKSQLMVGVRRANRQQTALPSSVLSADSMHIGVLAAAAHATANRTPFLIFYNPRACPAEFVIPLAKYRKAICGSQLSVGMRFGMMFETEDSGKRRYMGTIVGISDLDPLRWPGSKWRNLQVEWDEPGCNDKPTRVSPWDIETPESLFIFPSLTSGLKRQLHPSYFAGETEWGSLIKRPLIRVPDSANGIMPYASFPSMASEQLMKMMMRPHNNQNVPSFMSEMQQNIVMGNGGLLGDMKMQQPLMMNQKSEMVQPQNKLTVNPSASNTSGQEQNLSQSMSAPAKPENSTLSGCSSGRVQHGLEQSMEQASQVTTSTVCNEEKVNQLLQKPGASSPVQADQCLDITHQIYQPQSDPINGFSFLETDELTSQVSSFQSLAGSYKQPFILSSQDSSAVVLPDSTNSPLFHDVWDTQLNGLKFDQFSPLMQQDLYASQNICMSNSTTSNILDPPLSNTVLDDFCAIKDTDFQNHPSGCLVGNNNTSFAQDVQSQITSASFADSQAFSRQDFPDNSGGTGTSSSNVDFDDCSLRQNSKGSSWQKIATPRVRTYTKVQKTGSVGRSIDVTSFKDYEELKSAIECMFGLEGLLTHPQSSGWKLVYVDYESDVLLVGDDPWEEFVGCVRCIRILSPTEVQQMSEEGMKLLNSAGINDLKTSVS"}
{"Strand": "RNA 1 CUGAGCUCAG / RNA 2 CUGAGCUCAG (dsRNA 10 bp palindromic duplex)", "target": "FKBP3 1-74 (Homo sapiens, UniProt Q00688)", "assay": "NMR", "test system": "double-stranded RNA", "measurement": "binding", "result": "binds"}
{"Strand": "TGTGTTAGTTGGGGGGTGACTGTTAAAAGTGCATACCGCCAAAAGATAAAA (dsDNA)", "target": "T1, TFAM/TFB2M 43-245; 21-396 (Homo sapiens)", "assay": "fluorescence anisotropy", "test system": "double-stranded DNA, one strand shown", "measurement": "Kd", "result": "0.00648 µM"}
{"Strand": "ACACAGACGTACTATCATGACGCATCAGACAAC (ssDNA)", "target": "RPA1/RPA2/RPA3 heterotrimer, Cy5 label (Homo sapiens)", "assay": "FRET titration", "conditions": "approximate", "measurement": "Kd", "result": "< 0.0001 µM"}
{"Strand": "GAAGATAACGATATTTAAAA (dsDNA (Trichomonas vaginalis); 20-mer duplex)", "target": "MYB21 40-156 R87A (Trichomonas vaginalis, UniProt Q58HP3)", "assay": "ITC", "test system": "double-stranded DNA, one strand shown", "measurement": "Kd", "result": "15.2 µM"}
{"Strand": "GTATACCTGCAGCTGAGGCGAGCCGTTGGTGTGGATGGCAGGGGCAGGATTCGACTCTAGAGCGCA (ssDNA; stem-loop)", "target": "FGFR1 22-376 (Homo sapiens, UniProt P11362)", "assay": "MST", "test system": "single-stranded DNA", "conditions": "with: Mg2+ 5 mM", "measurement": "Kd", "result": "1.52 ± 0.47 µM"}
{"Strand": "RNA 1 AGGGUCUCCAUUUUGAAGCAUGC / RNA 2 GCAUGCUUCAAAAUGGAGACCCU (dsRNA 23 bp duplex)", "target": "FKBP3 1-224 (Homo sapiens, UniProt Q00688)", "assay": "EMSA", "test system": "double-stranded RNA", "conditions": "apparent", "measurement": "Kd", "result": "122 ± 8 µM"}
{"Strand": "AGTCTTTTTGGTCTCTGGTCGGTCGACAATCCGTGTG (dsDNA; 5-C6-amino-dT labels)", "target": "ARF5 1-390 (Arabidopsis thaliana, UniProt P93024)", "assay": "smFRET kinetics", "test system": "double-stranded DNA, one strand shown", "measurement": "Kd", "result": "0.015 µM"}
{"Strand": "GAGCTGTATCGTCTTGACTG (dsDNA (Trichomonas vaginalis); 20-mer duplex)", "target": "MYB21 40-156 K138A (Trichomonas vaginalis, UniProt Q58HP3)", "assay": "ITC", "test system": "double-stranded DNA, one strand shown", "measurement": "Kd", "result": "2.03 µM"}
{"note": "Excerpt of the above:"}
{"Strand": "RNA 1 AGGGUCUCCAUUUUGAAGCAUGC / RNA 2 GCAUGCUUCAAAAUGGAGACCCU (dsRNA 23 bp duplex)", "target": "FKBP3 1-224 (Homo sapiens, UniProt Q00688)", "assay": "EMSA", "test system": "double-stranded RNA", "conditions": "apparent", "measurement": "Kd", "result": "122 ± 8 µM"}
